Experimental data from different studies.
Compare with care: the assays were run in different laboratories.
FLT3: Receptor-type tyrosine-protein kinase FLT3 (FLT3, Homo sapiens, UniProt P36888)
FLT3 N841I: Receptor-type tyrosine-protein kinase FLT3 (FLT3, Homo sapiens, UniProt P36888, N841I)
FLT3 autoinhibited: Receptor-type tyrosine-protein kinase FLT3, autoinhibited (FLT3, Homo sapiens, UniProt P36888)

SMILES	target	assay	setting	how to read	remaining binding [%]
CNC1C[S+]2CC[S+]3CC[S+](C1)[Ru-4]321([N]=C=S)[n]2c3ccc(OC)cc3c3c4c(c5cc(F)c[n+]1c5c32)C(=O)NC4=O (stereo not shown)	FLT3	KinomeScan	0.1 µM	reference: untreated	31
CC(C)=CC1OC(C)(C)C2C=C3C(=O)C(Cl)=CC(O)C3C3C(O)C4OC4C(=O)C132 (stereo not shown)	FLT3 N841I	cell-free assay, competition with immobilised ligand	10 µM	–	93
C=CC(=O)N1CCc2ccc(-n3c(=O)ccc4cnc5ccc(-c6cnn(C)c6)cc5c43)cc21	Receptor-type tyrosine-protein kinase FLT3 (FLT3, Homo sapiens, UniProt P36888, K663Q)	KINOMEscan	1 µM	reference: DMSO control	100
CCN1CCN(Cc2ccc(C(=O)Nc3ccc(C)c(NCc4cnc5[nH]ccc5c4OC)c3)cc2C(F)(F)F)CC1	FLT3 N841I	binding, competition with immobilised ligand	1 µM	–	0.75
Nc1ncc2c(n1)-c1c([nH]c3ccc(C4=CCOCC4)cc13)CCC2	FLT3 autoinhibited	binding, competition with immobilised ligand	1 µM	–	100
CNC(=O)C1CCN(c2cc(C)c(F)cc2NC(=O)c2ccc(-c3cc(O)ccc3C)c(C)c2)CC1	FLT3	binding, competition with immobilised ligand	1 µM	–	96
COc1c(Cl)cccc1Nc1c(-c2ccncc2C#C[C@@]2(C)CCCN2C(=O)/C=C/CN(C)C)[nH]c2c1C(=O)NCC2	FLT3 autoinhibited	binding, competition with immobilised ligand	3 µM	–	95
C=CC(=O)N1CCCC(n2c(=O)c3ncccc3n(Cc3ccc(Oc4ccccc4)cc3)c2=O)C1 (stereo not shown)	Receptor-type tyrosine-protein kinase FLT3 (FLT3, Homo sapiens, UniProt P36888, D835H)	cell-free assay, competition with immobilised ligand	1 µM	–	72
Cc1ccc(-c2c(/C=C(\C#N)C(=O)NC(C)C)n(CCCO)c3ncnc(N)c23)cc1	Receptor-type tyrosine-protein kinase FLT3 (FLT3, Homo sapiens, UniProt P36888, D835Y)	binding, competition with immobilised ligand	1 µM	–	91
Cc1cnc2nc1Nc1cccc(c1)COC/C=C/COCc1cc(ccc1OCCN1CCOCC1)N2	Receptor-type tyrosine-protein kinase FLT3 (FLT3, Homo sapiens, UniProt P36888, R834Q)	binding	0.1 µM	–	5.7
